Experimental data of several laboratories.
Every numbered part comes from another study and shows a few of its results, in no order. Values joined by “and” are separate records of one study, mostly repeats; a detail may differ.

Set 1
Technique: logD(dd/w) and ALogP
Notes: JT method
SMILES | lipophilic permeability efficiency
CC(C)C[C@@H]1NC(=O)[C@H](C)NC(=O)[C@@H](CC(C)C)NC(=O)[C@@H](CCC(=O)N2CCCC2)NC(=O)[C@H](CC(C)C)NC(=O)[C@@H](CC(C)C)NC(=O)[C@H](CC(C)C)NC1=O | 2.23
CC(C)C[C@@H]1NC(=O)[C@H](C)NC(=O)[C@H](Cc2cscn2)NC(=O)[C@H](CCC(=O)N2CCCC2)NC(=O)[C@H](CC(C)C)NC(=O)[C@H](CC(C)C)NC(=O)[C@@H](CC(C)C)NC1=O | 1.81
CC(C)C[C@@H]1NC(=O)[C@H](C)NC(=O)[C@H](CCC(=O)N2CCCC2)NC(=O)[C@H](CC(C)C)NC(=O)[C@H](C(C)C)NC(=O)[C@H](CC(C)C)NC(=O)[C@@H](CC(C)C)NC1=O | 1.86
CC(C)C[C@@H]1NC(=O)[C@H](C)NC(=O)[C@H](C(C)C)NC(=O)[C@H](C)NC(=O)[C@H](C)NC(=O)[C@H](CC(C)C)NC(=O)[C@H](CC(C)C)NC1=O | 1.94
CC(C)C[C@@H]1NC(=O)[C@H](C)NC(=O)[C@@H](CC(C)C)NC(=O)[C@H](C)NC(=O)[C@H](CC(C)C)NC(=O)[C@H](CC(C)C)NC(=O)[C@@H](CC(C)C)NC1=O | 2.8

Set 2
Species: mouse
Medium: microsomes or S9
Tested at: 2 µM
Time: 0.5 h
SMILES | remaining compound [%]
Cn1cc(S(=O)(=O)N2CCCCC2)cc1C(=O)Nc1ccc2c(c1)OCCO2 | 12
COc1cc(C2CC(=O)c3cc4c(O)n[nH]c4nc3C2)cc(OC)c1OC (stereo not shown) | 77
COC(=O)c1c(=O)n(Cc2ccc(C(C)(C)C)cc2)c(=O)n2c(-c3ccc(Cl)cc3)c(-c3ccc(Cl)cc3)oc12 | > 99.9
COCCOc1cc(=O)n2c(c1C(=O)NC1CCCCC1)CCOCC2 | 66.7
CNc1ncc(C(=O)NC[C@H]2CC[C@@H]3C[C@H]2C3(C)C)cn1 | 0.866

Set 3
Organism: Sarcocystis neurona
Observed: parasite growth
Tested at: 10 µM
Time: 96 h
Reference: untreated
Structure (SMILES) | log2 fold change
CCCSc1ccc2nc(NC(=O)OC)[nH]c2c1 | 1.62
CCc1oc2ccccc2c1C(=O)c1cc(Br)c(O)c(Br)c1 | -0.0426
CN(C)CCN(Cc1ccccc1)c1ccccn1 | 0.3
CCC1(c2ccccc2)C(=O)NCNC1=O | 0.34

Set 4
Target: Beta-3 adrenergic receptor (ADRB3, Homo sapiens, UniProt P13945)
Chain of UniProt P13945 (whole entry, looked up): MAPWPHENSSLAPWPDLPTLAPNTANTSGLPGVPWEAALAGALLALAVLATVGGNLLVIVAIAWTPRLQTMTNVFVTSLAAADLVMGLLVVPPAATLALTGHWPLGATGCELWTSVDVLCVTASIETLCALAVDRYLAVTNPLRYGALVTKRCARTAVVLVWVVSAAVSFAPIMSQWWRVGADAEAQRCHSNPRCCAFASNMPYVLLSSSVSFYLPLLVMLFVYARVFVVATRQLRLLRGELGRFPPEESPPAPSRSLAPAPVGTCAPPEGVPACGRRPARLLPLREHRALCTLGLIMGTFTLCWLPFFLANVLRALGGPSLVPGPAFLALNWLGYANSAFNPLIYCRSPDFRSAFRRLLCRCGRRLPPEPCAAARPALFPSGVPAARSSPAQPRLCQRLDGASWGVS
Observed: ligand displacement
Tested at: 10 µM
Compound | inhibition [%]
O=C(NS(=O)(=O)c1ccc(NCC2CCOCC2)c([N+](=O)[O-])c1)c1ccc(N2CCN(Cc3ccc(C(F)(F)F)cc3-c3ccc(Cl)cc3)CC2)cc1Oc1cnc2[nH]ccc2c1 | -21.1
CCC(F)(F)c1cc(N2CCC(S(C)(=O)=O)CC2)nc2sc(C(N)=O)c(N)c12 | 18
CC1CCN(c2ccnc(NCc3cn(C)cn3)n2)CC1 | -18.3
COc1cc(C(=O)O)ncc1C#Cc1ccccc1NS(=O)(=O)c1cccc2c(N(C)C)ccnc12 | -19
C[C@@H](c1cccc(C#N)c1)n1cc(Cl)cc(C(N)=O)c1=N | -4.49
Cc1cc(Nc2nccc(C)n2)cc(-c2cnc([C@@]3(O)CC[C@H](C(=O)O)C(C)(C)C3)s2)c1 | 3.43
COc1ccc2cc(OCC3(C(=O)O)CN(C(=O)c4ccc(F)cc4)C3)ccc2c1 | -19.9
c1ccc(N2CCN(Cc3nc4ccccc4[nH]3)CC2)nc1 | 21.7
O=c1nc(-c2ccccn2)sc2ccccc12 | 20.1
CN1CCN(c2cnc3c(C4CCN(C(=O)c5ccc(OC(F)(F)F)cc5N)CC4)ncnc3c2)CC1 | -19.7
CC(=O)Nc1ncc(CN2CCC[C@H](Cc3cc(C)nc(C)c3)C2)s1 | -19.9
CC[C@H](CC(=O)O)n1c(=O)c2ncccc2n(Cc2cn(C)c3cc(C)cc(C)c23)c1=O | -6.54
C[C@@H]1CN(c2cc(-c3n[nH]c4ccc(OC5(C)CC5)cc34)ncn2)C[C@H](C)O1 | -5.99

Single results of other studies
SMILES | assay | system | setting | quantity | value
COc1ccc(-c2c(Nc3ccccn3)[nH]c3c(C4=CCCCC4)c(-c4ccccc4)nn3c2=O)cc1 | LC-MS/MS | human, plasma | oral, 50 mg once daily | Clast | 1090 ng/mL and 1190 ng/mL and 1150 ng/mL

Some of these lines once more (set 4):
Compound | inhibition [%]
c1ccc(N2CCN(Cc3nc4ccccc4[nH]3)CC2)nc1 | 21.7
CC(=O)Nc1ncc(CN2CCC[C@H](Cc3cc(C)nc(C)c3)C2)s1 | -19.9
COc1ccc2cc(OCC3(C(=O)O)CN(C(=O)c4ccc(F)cc4)C3)ccc2c1 | -19.9
